{"data": "Assay results of several laboratories", "note": "Parts stem from different laboratories: compare values within a part only."}
{"data": "Sample 1", "target": "RNA binding protein fox-1 homolog 2, RRM domain, GST-SBP tag (RBFOX2, Homo sapiens, UniProt O43251-10, residues 100-194)", "technique": "RNA Bind-n-Seq", "molecule type": "RNA", "sample": "in vitro", "concentration": "365 nM", "notes": "natural RNA segment, single round, ends assumed", "relative to": "no-protein control", "direction": "higher = stronger binding", "Construct (chain)": "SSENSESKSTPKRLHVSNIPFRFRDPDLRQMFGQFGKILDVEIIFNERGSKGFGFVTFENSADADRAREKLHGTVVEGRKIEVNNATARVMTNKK"}
{"Oligonucleotide": "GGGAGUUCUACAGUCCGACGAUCACAAAGAAGGCAGAGCCAGGAUAUAACUAGAAAAAGGAUGUCUUUUUUUUUUUUUUUACUCCCCCUCUAAACACUGCUGCUGCCUUAAUUUUAGAAAGCAGCUUACUAGUUGGAAUUCUCGGGUGCCAA", "RBNS enrichment (R)": 0.393}
{"Oligonucleotide": "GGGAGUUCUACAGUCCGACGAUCAUGAAGAAGUGCUUCCGUGGCCGACAGUCUGGAAAUGAAUCCAUCAUACAUUAGUGCCAUAGAGUUUAGUAACCGUCCAGCAAGUGUCAUCACUUUUACAGAAAACAAGGUGGAAUUCUCGGGUGCCAA", "RBNS enrichment (R)": 0.507}
{"Oligonucleotide": "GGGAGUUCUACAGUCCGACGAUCAUGAAAAGUGCCAUACUUAACUUUUAAAGGAAAGACCUGACUUGCUUUUUCUCUAUUUAGACUGUUUUUGUACUUUACUAAUCUUUAAACUAUCAGGAAAAAAACCAAAAUGGAAUUCUCGGGUGCCAA", "RBNS enrichment (R)": 1.03}
{"Oligonucleotide": "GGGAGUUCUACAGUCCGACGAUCAGUUUCUGGCUUGCUUCUCCCUUUGUAUAGGGGAGAACAGAGAAGAGGUUUAUGCUGAGGGGGGGUGACUUUUUAGAAACGUAGCUUCUUGGCGUUUUGCAACCCAUGCUUGGAAUUCUCGGGUGCCAA", "RBNS enrichment (R)": 2.73}
{"Oligonucleotide": "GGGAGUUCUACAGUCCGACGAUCCGUGCUCUCCCUUUUGGUAGGUGUUACUUUAAGAACUGCAGUCAGACUUGCUGUUGCCUGACAAUUAACUCACUGUGAGGAUAGGCACGCACGCUUUUCAUAAUUAACUGUGGAAUUCUCGGGUGCCAA", "RBNS enrichment (R)": 0.535}
{"Oligonucleotide": "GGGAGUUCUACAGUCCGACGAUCGGAGUAGGACAGAACUGGAAAGCUGAGUGGGCCUCAGUGUGGAGAGGUACUAGUGGACAGGACUUUCAUGGCUUGGGUCCAUGCUCCUCCCACACCCAAGAGGAGUGGUGUGGAAUUCUCGGGUGCCAA", "RBNS enrichment (R)": 1.09}
{"Oligonucleotide": "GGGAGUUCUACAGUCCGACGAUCGUAGAUUUAAAUGCUCAAAAAUAAAUGUAACUGAGAAGAGUUAAUAAUUGUGAGAUUUUUCCCAAAUUGAGAUACAGAAGAAAAUAUAGUUUGAAUCUGAAAUUUAACACUGGAAUUCUCGGGUGCCAA", "RBNS enrichment (R)": 0.72}
{"Oligonucleotide": "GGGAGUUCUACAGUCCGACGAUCUAGGAGUAAUAGUUUCCCCCAAGGACAGCCCAGCCCAUGGACCACUUCUUCCUCAGUGGAGAUACCACACAUGAGUGGAGAGAUACGUUAGAUAGCUUUGGUAAAUAUCUUGGAAUUCUCGGGUGCCAA", "RBNS enrichment (R)": 0.318}
{"data": "Sample 2", "target": "Replicase polyprotein 1ab, polymerase (rep, Severe acute respiratory syndrome coronavirus 2, UniProt P0DTD1)", "observed": "enzyme activity", "action": "inhibitor", "concentration": "20 µM"}
{"SMILES": "Cc1c(NC(=O)OC[C@@H]2COCCN2)cn2ncnc(Nc3ccc4c(cnn4Cc4cccc(F)c4)c3)c12", "inhibition": "2.82%"}
{"SMILES": "Nc1ccc(C(=O)O)c(O)c1", "inhibition": "2.31%"}
{"SMILES": "CCN(CC)CCCC(C)Nc1nc(C)cc(Nc2ccc3nc(C)cc(N)c3c2)n1 (centres unmarked)", "inhibition": "-6.96%"}
{"SMILES": "O=C(CSc1nc2c(c(=O)n1-c1ccccc1)SCC2)Nc1ccc(-c2ccccc2)cn1", "inhibition": "2.03%"}
{"SMILES": "C=CC(=O)c1ccc2ccccc2c1", "inhibition": "-2.29%"}
{"SMILES": "Cc1oc2nc3c(c(NC(=O)CN4CCCC4=O)c2c1C)CCCC3", "inhibition": "-6.79%"}
{"SMILES": "COc1ccncc1C(=O)NC(=O)Nc1ccc(-c2ccccc2)c(C(F)(F)F)c1", "inhibition": "0.42%"}
{"SMILES": "COc1ccc2nc3c(c(N)c2c1)CCCC3", "inhibition": "-0.58%"}
{"SMILES": "CN(C)[C@@H]1CCc2[nH]c3ccc(NC(=O)c4ccc(F)cc4)cc3c2C1", "inhibition": "29.6%"}
{"SMILES": "CCCC(=O)Nc1ccc(OCC(O)CNC(C)C)c(C(C)=O)c1 (centres unmarked)", "inhibition": "0.07%"}
{"SMILES": "CN(C)[C@@H](CCOc1cccc2ccccc12)c1ccccc1", "inhibition": "-7.22%"}
{"SMILES": "CN1C(CSCC(F)(F)F)Nc2cc(Cl)c(S(N)(=O)=O)cc2S1(=O)=O (centres unmarked)", "inhibition": "-6.29%"}
{"SMILES": "Cc1cc(NC(=O)Nc2ccc(F)c(F)c2)n(-c2ccccc2)n1", "inhibition": "3.93%"}
{"SMILES": "COC(=O)[C@@H]1[C@H]2C[C@H]3c4[nH]c5ccccc5c4CCN3C[C@@H]2CC[C@@H]1O", "inhibition": "4.17%"}
{"SMILES": "CCCCOc1ccc(CC(=O)NO)cc1", "inhibition": "19.9%"}
{"SMILES": "NC1(c2ccc(-c3nc4ccn5c(=O)[nH]nc5c4cc3-c3ccccc3)cc2)CCC1", "inhibition": "14.4%"}
{"SMILES": "COc1ccccc1OC(=O)C(C)c1ccc(CC(C)C)cc1 (centres unmarked)", "inhibition": "0.04%"}
{"SMILES": "FC(F)(F)c1ccc(CNc2ccc(Cc3c[nH]c4ncccc34)cn2)cc1", "inhibition": "-2.4%"}
{"SMILES": "N#Cc1c(N)nc(SCC(N)=O)c(C#N)c1-c1ccc(OCC2CC2)cc1", "inhibition": "0.73%"}
{"SMILES": "CCc1ccc(C(=O)C(C)CN2CCCCC2)cc1 (centres unmarked)", "inhibition": "-1.66%"}
{"SMILES": "CN1CCN(C(=O)C2C(C(=O)O)[C@H]3CC[C@@H]2O3)CC1 (some centres unmarked)", "inhibition": "-2.16%"}
{"SMILES": "CS(=O)(=O)Oc1ccc2c(NC(N)=O)c(C(=O)c3ccc(Cl)cc3Cl)oc2c1", "inhibition": "-7.17%"}
{"SMILES": "NC(=O)c1ccc2[nH]ccc2c1", "inhibition": "1.97%"}
{"SMILES": "C=CC(=O)N1CCN(C(=O)CNc2cc(I)c(Cl)cc2O)CC1", "inhibition": "0.38%"}
{"SMILES": "COc1ccc(C2CC(c3ccccc3)=NN2c2ccc(S(N)(=O)=O)cc2)cc1 (centres unmarked)", "inhibition": "1.51%"}
{"data": "Sample 3", "target": "Sal-like protein 4, full length isoform A (SALL4, Homo sapiens, UniProt Q9UJQ4, residues 1-1053)", "technique": "universal PBM", "molecule type": "double-stranded DNA, one strand shown", "sample": "in vitro", "concentration": "600 nM", "notes": "8-mer, flanks averaged, mean of replicates", "direction": "higher = stronger binding", "UniProt Q9UJQ4, sequence (whole entry, looked up)": "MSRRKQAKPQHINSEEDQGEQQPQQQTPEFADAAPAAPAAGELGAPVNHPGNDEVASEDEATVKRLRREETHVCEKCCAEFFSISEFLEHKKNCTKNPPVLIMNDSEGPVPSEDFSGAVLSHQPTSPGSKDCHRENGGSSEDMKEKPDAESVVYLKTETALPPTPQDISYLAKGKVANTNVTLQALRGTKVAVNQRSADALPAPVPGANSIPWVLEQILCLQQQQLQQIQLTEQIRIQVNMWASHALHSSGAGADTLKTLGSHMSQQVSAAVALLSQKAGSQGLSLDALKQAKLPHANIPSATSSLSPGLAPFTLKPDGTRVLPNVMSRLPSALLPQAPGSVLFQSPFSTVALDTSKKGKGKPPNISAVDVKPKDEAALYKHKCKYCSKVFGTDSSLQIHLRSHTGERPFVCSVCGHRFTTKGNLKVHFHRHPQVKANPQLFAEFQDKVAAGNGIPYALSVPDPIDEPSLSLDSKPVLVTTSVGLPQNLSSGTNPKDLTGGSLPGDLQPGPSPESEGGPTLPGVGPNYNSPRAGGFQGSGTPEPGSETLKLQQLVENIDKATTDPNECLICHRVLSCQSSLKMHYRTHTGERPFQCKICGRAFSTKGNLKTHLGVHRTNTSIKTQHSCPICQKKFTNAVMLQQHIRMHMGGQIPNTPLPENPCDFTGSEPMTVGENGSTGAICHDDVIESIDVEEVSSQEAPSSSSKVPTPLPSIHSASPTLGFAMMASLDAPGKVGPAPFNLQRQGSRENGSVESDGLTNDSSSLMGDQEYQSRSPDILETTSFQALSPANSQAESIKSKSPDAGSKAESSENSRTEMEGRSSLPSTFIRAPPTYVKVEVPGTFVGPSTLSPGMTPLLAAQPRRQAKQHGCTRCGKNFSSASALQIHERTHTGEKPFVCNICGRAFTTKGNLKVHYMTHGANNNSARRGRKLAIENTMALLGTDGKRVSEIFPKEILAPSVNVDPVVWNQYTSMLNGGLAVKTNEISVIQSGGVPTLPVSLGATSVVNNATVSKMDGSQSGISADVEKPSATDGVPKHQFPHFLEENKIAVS"}
{"Oligonucleotide": "GCCCCAAC", "E-score": -0.2}
{"Oligonucleotide": "ACAGTGCA", "E-score": -0.0521}
{"Oligonucleotide": "TTCCGGAA", "E-score": -0.188}
{"Oligonucleotide": "AACACTTC", "E-score": 0.14}
{"Oligonucleotide": "CATCGGGA", "E-score": -0.137}
{"Oligonucleotide": "CAACTATC", "E-score": 0.0516}
{"Oligonucleotide": "TACTATCA", "E-score": 0.183}
{"Oligonucleotide": "AACGACCA", "E-score": -0.0513}
{"data": "Sample 4", "target": "Histone acetyltransferase KAT6A, winged helix 2, GST fusion (KAT6A, Homo sapiens, UniProt Q92794, residues 85-181)", "technique": "protein binding microarray", "molecule type": "double-stranded DNA, one strand shown", "sample": "in vitro", "concentration": "not given", "notes": "8-mer, flanks averaged, mean of 2 arrays, mostly near background", "relative to": "not given", "direction": "higher = stronger binding", "Target sequence (chain)": "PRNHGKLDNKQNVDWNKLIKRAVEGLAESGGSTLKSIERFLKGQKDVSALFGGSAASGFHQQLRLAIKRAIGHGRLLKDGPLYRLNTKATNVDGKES"}
{"Oligonucleotide": "ACGTGACG", "E-score": -0.199}
{"Oligonucleotide": "GTCGATCA", "E-score": 0.0671}
{"Oligonucleotide": "ATTCGGAG", "E-score": 0.135}
{"Oligonucleotide": "AGACGAGC", "E-score": -0.0323}
{"Oligonucleotide": "CCCCCTGA", "E-score": 0.0178}
{"Oligonucleotide": "CATTACTA", "E-score": -0.119}
{"Oligonucleotide": "GAGCCTGC", "E-score": 0.1}
{"Oligonucleotide": "GAACTACC", "E-score": -0.129}
{"data": "Mixed results"}
{"Compound": "CCC1(c2ccccc2)C(=O)NCNC1=O", "cell line": "HEK-293T", "assay": "pseudovirus infection, FDA-approved drug library screen", "test system": "VSV pseudotyped with SARS-CoV-2 spike", "conditions": "10 µM, 16 h", "how to read": "relative to: vehicle-treated", "quantity": "GFP-positive cells", "result": "105%"}
{"note": "For quick reference, copied from above (sample 2):"}
{"SMILES": "CCCC(=O)Nc1ccc(OCC(O)CNC(C)C)c(C(C)=O)c1 (centres unmarked)", "inhibition": "0.07%"}
{"SMILES": "CN(C)[C@@H](CCOc1cccc2ccccc12)c1ccccc1", "inhibition": "-7.22%"}
{"SMILES": "CN1C(CSCC(F)(F)F)Nc2cc(Cl)c(S(N)(=O)=O)cc2S1(=O)=O (centres unmarked)", "inhibition": "-6.29%"}
